Measured values pooled from the literature.
A part holds a random share of what one study measured.
UniProt Q9FKM7, sequence (whole entry, looked up): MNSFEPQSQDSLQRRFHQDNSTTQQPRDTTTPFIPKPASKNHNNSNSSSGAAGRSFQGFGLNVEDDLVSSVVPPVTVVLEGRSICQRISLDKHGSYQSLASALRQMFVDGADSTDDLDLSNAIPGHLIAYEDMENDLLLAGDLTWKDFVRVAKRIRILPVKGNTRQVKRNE
UniProt O24408, sequence (whole entry, looked up): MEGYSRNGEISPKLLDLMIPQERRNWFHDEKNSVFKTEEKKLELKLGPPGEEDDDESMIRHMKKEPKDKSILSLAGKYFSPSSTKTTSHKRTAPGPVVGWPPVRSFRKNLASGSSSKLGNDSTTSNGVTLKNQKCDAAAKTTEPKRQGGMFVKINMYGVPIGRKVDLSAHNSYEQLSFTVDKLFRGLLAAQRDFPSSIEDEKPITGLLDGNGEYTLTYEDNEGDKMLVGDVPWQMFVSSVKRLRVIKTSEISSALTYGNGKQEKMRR
UniProt Q38831, sequence (whole entry, looked up): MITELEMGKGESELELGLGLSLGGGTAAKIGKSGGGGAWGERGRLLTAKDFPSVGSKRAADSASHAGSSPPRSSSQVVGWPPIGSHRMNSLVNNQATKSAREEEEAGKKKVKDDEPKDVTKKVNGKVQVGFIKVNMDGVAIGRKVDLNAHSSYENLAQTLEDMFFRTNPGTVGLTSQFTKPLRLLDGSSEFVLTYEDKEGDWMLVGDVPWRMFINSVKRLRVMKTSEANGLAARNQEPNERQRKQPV
UniProt Q8RYC8, sequence (whole entry, looked up): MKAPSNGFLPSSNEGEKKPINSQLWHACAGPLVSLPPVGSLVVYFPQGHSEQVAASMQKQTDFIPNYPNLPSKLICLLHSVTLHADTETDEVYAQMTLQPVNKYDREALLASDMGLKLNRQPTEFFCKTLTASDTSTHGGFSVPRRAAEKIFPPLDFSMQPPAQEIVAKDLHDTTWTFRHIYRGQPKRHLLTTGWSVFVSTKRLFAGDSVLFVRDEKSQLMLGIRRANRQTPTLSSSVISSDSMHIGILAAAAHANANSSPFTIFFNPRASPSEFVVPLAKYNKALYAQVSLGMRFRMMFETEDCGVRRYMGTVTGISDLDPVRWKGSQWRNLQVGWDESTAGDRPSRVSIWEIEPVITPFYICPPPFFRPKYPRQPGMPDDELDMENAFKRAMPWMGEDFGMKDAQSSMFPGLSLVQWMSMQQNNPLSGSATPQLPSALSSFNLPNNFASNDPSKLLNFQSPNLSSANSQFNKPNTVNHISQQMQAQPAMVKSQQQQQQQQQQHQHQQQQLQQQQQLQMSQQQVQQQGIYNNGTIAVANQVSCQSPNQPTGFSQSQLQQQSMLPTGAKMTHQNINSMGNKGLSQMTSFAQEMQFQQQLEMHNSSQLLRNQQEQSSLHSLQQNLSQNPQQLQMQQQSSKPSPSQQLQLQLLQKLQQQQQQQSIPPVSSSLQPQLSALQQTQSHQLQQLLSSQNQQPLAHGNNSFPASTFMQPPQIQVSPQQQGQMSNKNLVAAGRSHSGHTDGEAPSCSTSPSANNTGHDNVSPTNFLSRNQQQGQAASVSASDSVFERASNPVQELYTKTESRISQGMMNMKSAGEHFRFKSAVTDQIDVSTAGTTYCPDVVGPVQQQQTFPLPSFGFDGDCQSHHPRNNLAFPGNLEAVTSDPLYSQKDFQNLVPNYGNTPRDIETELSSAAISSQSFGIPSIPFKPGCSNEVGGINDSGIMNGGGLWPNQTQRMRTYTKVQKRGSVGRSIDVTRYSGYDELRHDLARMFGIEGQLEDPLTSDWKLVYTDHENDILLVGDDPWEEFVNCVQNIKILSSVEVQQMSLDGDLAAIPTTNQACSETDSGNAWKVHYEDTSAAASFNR
UniProt Q9XFM0, sequence (whole entry, looked up): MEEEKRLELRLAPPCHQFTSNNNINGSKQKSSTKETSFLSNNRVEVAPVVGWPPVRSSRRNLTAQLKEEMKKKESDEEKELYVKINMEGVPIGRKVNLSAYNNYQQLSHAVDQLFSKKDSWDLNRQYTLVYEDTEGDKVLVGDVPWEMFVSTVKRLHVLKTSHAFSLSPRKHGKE

Sample 1 — Molecule: B1 (IAA4); technique: two-hybrid; direction: higher = firmer interaction
B1: IAA4 (Arabidopsis thaliana, UniProt P33077); chain MEKVDVYDELVNLKATELRLGLPGTEETVSCGKSNKRVLPEATEKEIESTGKTETASPPKAQIVGWPPVRSYRKNNVQTKKSESEGQGNYVKVSMDGAPYLRKIDLTMYKQYPELMKSLENMFKFSVGEYFEREGYKGSDFVPTYEDKDGDWMLVGDVPWEMFVSSCKRLRIMKGSEVKGLGCGGL
It gave 2 for positive tests (IAA18 (Arabidopsis thaliana, UniProt O24408); reference: out of 2 tests).
The positive tests was 3 (IAA14 (Arabidopsis thaliana, UniProt Q38832); reference: out of 4 tests).
IAA33 (Arabidopsis thaliana, UniProt Q9FKM7); reference: out of 4 tests — positive tests: 1.
IAA9 (Arabidopsis thaliana, UniProt Q38827); reference: out of 4 tests — positive tests: 4.
For IAA8 (Arabidopsis thaliana, UniProt Q38826); reference: out of 4 tests: positive tests read 4.
For IAA28 (Arabidopsis thaliana, UniProt Q9XFM0); reference: out of 4 tests: positive tests read 4.
For ARF19 948-1086 (Arabidopsis thaliana, UniProt Q8RYC8); reference: out of 4 tests: positive tests read 4.
IAA13 (Arabidopsis thaliana, UniProt Q38831); reference: out of 4 tests — positive tests: 2.

Sample 2 — technique: RNA Bind-n-Seq; form: RNA; matrix: in vitro; tested at: 365 nM; reference: no-protein control; direction: higher = stronger binding
Target: RNA binding protein fox-1 homolog 2, RRM domain, GST-SBP tag (RBFOX2, Homo sapiens, UniProt O43251-10, residues 100-194)
Setting: natural RNA segment, single round, ends assumed
Shared flanks, not repeated: GGGAGUUCUACAGUCCGACGAUC … UGGAAUUCUCGGGUGCCAA
`UUGUACAAAAUUUUAAAGACUUAAUUUAUUGCCAAAAUUCUGUGUAAAGUGACAGUGUAUCUAACAGUUGUUAGAGAACUCCCCAUUUCUGUUCCCCUGUGCUGUGUAUG`: “RBNS enrichment (R)” 1.59.
Under “RBNS enrichment (R)”, `AGGAAUAUUCAUAGCACUUGUCACAAAUAGAAGGCAACCAUGAGAUAAUACAAGCCAGGGAGAGGCUUGUAUUACAUGACAGGUGUAAUUAGUCUGCUGAGCCAGCUUUA` is recorded as 0.942.
`UGAGAAAAUGUAAAGGCUGCCAUUAUGGAUAUUAGGUAUCCCAACAUAACCAUCUGGAGUGUGUCCAGUUUAUUUUUCAUAGGACCAAUUUUUAUUUGCAGCUUAGGUUU`: “RBNS enrichment (R)” 0.632.
`AAUAUUUUAAGACCAGGUAUAAUAGUGAAUGCCUGUCCCAGCUCCUGGGAUGCAGAGGAGGGGGAUCACUGCAAGACCACCCUGGUUGCUCUCCAUAUGAGCUCCAGGCC`: “RBNS enrichment (R)” 1.13.
`AAAAAUUAUUUUACCUACAGAGAGGUUGUAGUUUUGAGCACAUGUUAGUUCCUCCCUCUUCCCGAUGUUCAUCUUCUAAGUAAGGGACAGCAUGCUACAGGACAGACCUG`: “RBNS enrichment (R)” 3.37.
Under “RBNS enrichment (R)”, `ACCCCCCUCCCCCUGUUAACAGUGGCUCAGAAAAGCUUUGUACUAAAAGCAUGGGACCCUCACAGCAACCAUUCCUGGGAGAUGGGUCCCUUAUAGGUCCAUGACCUGCU` is recorded as 0.385.
For `AAUAUGUAAUCAACUGCAUUGUAUCUAAAGCCUUAGAACUAGUCAGGUGCUCCCUCCACCCAAUACCAUUUCUUACCCUCUAAUCCUACCUGAUCUUUAACAAAGCAUUA`, “RBNS enrichment (R)” read 0.417.
Under “RBNS enrichment (R)”, `CCGCCGCCCCACCAGUUAAACGGAUGACCAAAGACCUUUCUUAUGCCGGAAGCAAAAACCAAAACUUUUUGUUGGCUUUUUCCUUUGUCGCCUCCCCAGCACCUGCCCUC` is recorded as 0.434.

Sample 3 — technique: universal PBM; form: double-stranded DNA, one strand shown; matrix: in vitro; tested at: not given; direction: higher = stronger binding
Target: Sal-like protein 4, full length isoform B (SALL4, Homo sapiens, UniProt Q9UJQ4-2, residues 1-616)
Setting: 8-mer, flanks averaged, mean of replicates
With `ATATCAAC` the E-score was 0.236.
`CGAAGAAG` has an E-score of -0.0648.
`CAACTTGC` gave an E-score of -0.176.
With `CCATGAAG` the E-score was -0.103.
`GCTAGAAA` has an E-score of 0.0586.
`ACCGTCCT` has an E-score of 0.0741.
For `ACGTGCCA`, the E-score was -0.135.
`AGTTCTAT` has an E-score of 0.0858.

Other studies, line by line
For `YQIEGAWRA`, binding read “inactive” (HLA class I histocompatibility antigen, A alpha chain, allele A*80:01 (Homo sapiens, UniProt P04439); peptide-MHC binding; peptide; concentration not given).

Some of these lines once more (sample 3):
With `ATATCAAC` the E-score was 0.236.
`CGAAGAAG` has an E-score of -0.0648.
